{"data": "Measured values pooled from the literature", "note": "Lines come from different studies, so protocols differ. “And” joins repeats or separate records; there may be more than shown. Numbers after ± are the reported error."}
{"Compound": "O=C(Nc1ccccc1)C1CCN(C(=O)Oc2cccnc2)CC1", "test": "psychotropic effects VAS", "test system": "healthy women", "setting": "20 mg", "how to read": "reference: pre-dose baseline, direction not given", "quantity": "change in Sounds score", "value": 0.2}
{"Compound": "CO[C@H]1C[C@@H]2CC[C@@H](C)[C@@](O)(O2)C(=O)C(=O)N2CCCC[C@H]2C(=O)O[C@H]([C@H](C)C[C@@H]2CC[C@@H](OC(=O)NCCOCCOCCOCCOCCOCCOCCOCCOCCC(=O)N3CCc4cc(Cn5nc(-c6ccc7oc(N)nc7c6)c6c(N)ncnc65)ccc4C3)[C@H](OC)C2)C[C@@H](O)[C@H](C)/C=C(\\C)[C@@H](O)[C@@H](OC)C(=O)[C@H](C)C[C@H](C)/C=C/C=C/C=C/1C", "test system": "patients with advanced solid tumours", "setting": "intravenous, dose not given, grade ≥3", "quantity": "incidence of Diarrhea TEAE", "value": "0%"}
{"Compound": "CC(C)C[C@H](NC(=O)[C@H](CCCCN)NC(=O)OCC1c2ccccc2-c2ccccc21)C(=O)N[C@H](C(=O)N[C@@H](Cc1ccccc1)C(=O)N[C@@H](Cc1ccccc1)C(=O)N[C@@H](CCCCN)C(=O)NCC(=O)N[C@@H](Cc1ccccc1)C(=O)N[C@@H](C)C(=O)N[C@@H](Cc1c[nH]c2ccccc12)C(=O)N[C@@H](CC(N)=O)C(=O)N[C@H](C(=O)N[C@H]1CSSC[C@@H](C(=O)N[C@@H](Cc2c[nH]cn2)C(=O)N[C@@H](CCCNC(=N)N)C(=O)N[C@@H](CCCNC(=N)N)C(=O)N[C@@H](C)C(=O)N[C@@H](CC(N)=O)C(N)=O)NC(=O)[C@H](C(C)C)NC(=O)[C@H](CCCNC(=N)N)NC(=O)[C@H](C(C)C)NC(=O)CNC(=O)[C@H](CC(N)=O)NC(=O)[C@H](CCCNC(=N)N)NC(=O)[C@H](Cc2ccc(O)cc2)NC(=O)[C@H](C(C)C)NC1=O)C(C)C)C(C)C", "test system": "ICR mouse, blood", "setting": "intramammary, 5 mg/kg, day 5, 3 d dosing", "quantity": "albumin", "value": "33.6 ± 1.21 g/L"}
{"Compound": "CC(C)=CC1C(C(=O)OC(C#N)c2cccc(Oc3ccccc3)c2)C1(C)C (centres unmarked)", "test": "item: CYP2C8", "test system": "human, age 6 months", "quantity": "enzyme contribution to clearance", "value": "5.84%"}
{"Compound": "COc1cc2c(Oc3ccc4[nH]c(C)cc4c3F)ccnc2cc1OCC1(N)CC1", "test system": "paediatric recurrent refractory sarcoma", "setting": "8 mg", "quantity": "grade 1 or 2 Rash", "value": "0%"}
{"Compound": "O=C1Nc2cc3[nH]nc(-c4ccncc4)c3cc2CN1Cc1ccccc1", "test": "CTCAE v4.03", "test system": "human, relapsed or refractory advanced solid tumours", "setting": "intravenous, 0.9 mg/kg, pooled schedules", "quantity": "patients with subretinal fluid", "value": "0%"}
{"Compound": "C[C@@H]1NC(=O)[C@H](CCCCNC(=O)CO/N=C/C(=O)NCCCC[C@@H]2NC(=O)[C@@H](Cc3ccccc3)NC(=O)[C@H](CC(=O)O)NC(=O)CNC(=O)[C@H](CCCNC(=N)N)NC2=O)NC(=O)CNC(=O)[C@@H]2CCCN2C(=O)[C@H](CCCCNC(=O)CO/N=C/C(=O)NCCCC[C@@H]2NC(=O)[C@@H](Cc3ccccc3)NC(=O)[C@H](CC(=O)O)NC(=O)CNC(=O)[C@H](CCCNC(=N)N)NC2=O)NC(=O)[C@H](CCCCNC(=O)CN2CCCNCCNCCCNCC2)NC(=O)[C@H](CCCCNC(=O)CO/N=C/C(=O)NCCCC[C@@H]2NC(=O)[C@@H](Cc3ccccc3)NC(=O)[C@H](CC(=O)O)NC(=O)CNC(=O)[C@H](CCCNC(=N)N)NC2=O)NC(=O)CNC(=O)[C@@H]2CCCN2C(=O)[C@H](CCCCNC(=O)CO/N=C/C(=O)NCCCC[C@@H]2NC(=O)[C@@H](Cc3ccccc3)NC(=O)[C@H](CC(=O)O)NC(=O)CNC(=O)[C@H](CCCNC(=N)N)NC2=O)NC1=O [copper-64 labelled]", "test system": "normal mice, heart", "setting": "intravenous, 0.74 MBq, 24 h post-injection", "quantity": "tissue uptake", "value": "0.73 ± 0.07 %ID/g"}
{"Compound": "CCc1ccc(CC/C=C/c2ccc3c(c2)C(=O)CC3)cc1", "test system": "Sprague-Dawley rat, female", "setting": "oral, 120 mg/kg/day, 14 days", "quantity": "MCHC", "value": "333 g/L"}
{"Compound": "CC(=O)N(C)[C@H]1CCN(C(=O)c2cnc3c(c2)C[C@](C)(c2ccc(F)cc2)N3)C1", "test": "item: burning sensation in eye", "test system": "human", "setting": "oral, dose not given, added: midazolam", "quantity": "adverse event duration", "value": "186 days"}
{"Compound": "COc1ccc2c(c1)CN(C(=O)CCN1CCC(Cc3ccccc3)CC1)CC[S@@+]2[O-]", "test system": "dogs, chronic AV block", "setting": "intravenous, 1 and 3 mg/kg", "quantity": "extrasystoles per hour", "value": "no effect"}
{"Compound": "C[C@H]1CN(C(=O)CC#N)[C@]12CCN(c1ncnc3[nH]ccc13)C2", "test system": "minipig, male and female", "setting": "dermal, 9 months, highest dose given", "quantity": "NOAEL", "value": "20 mg/kg"}
{"Compound": "Cn1nc(NS(C)(=O)=O)c2c(Cl)ccc(-n3c([C@H](Cc4cc(F)cc(F)c4)NC(=O)Cn4nc(C(F)F)c5c4C(F)(F)[C@@H]4C[C@H]54)nc4nc(OCCC(F)(F)F)ccc4c3=O)c21", "test": "item: blood triglycerides increased", "test system": "human", "setting": "25 mg, powder in bottle", "quantity": "drug-related adverse events", "value": "0%"}
{"Compound": "NC(=O)[C@H]1CCN(c2ncnc(N)c2F)C[C@@H]1N1CCC[C@@H](Nc2cc(Cl)cc(C(F)(F)F)c2)C1=O", "test system": "B-cell malignancy patients", "setting": "oral, 164 mg twice daily, dose", "quantity": "grade ≥3 neutropenia", "value": "0%"}
{"Compound": "C[C@]1(CO)Cc2ncn(-c3ccc(C#N)c(Cl)c3)c2C(=O)O1", "test system": "healthy humans", "setting": "concentration not given, multiple dose part total", "quantity": "drug-related Headache incidence", "value": "2.2%"}
{"Compound": "CC(C)(O)c1cc(Nc2cc(Oc3cn(C4CC4)nc3C3CCOCC3)ccn2)ccn1", "test": "Constipation", "test system": "patients with advanced cancer, Japanese cohort", "setting": "oral, dose not given, grade ≥3", "quantity": "treatment-related adverse events", "value": "0%"}
{"Compound": "C=CC(=O)Nc1cc(Nc2nccc(Nc3cc(Cl)c(F)cc3C(C)(C)O)n2)c(OC)cc1N1CC[C@@H](N(C)C)C1", "test system": "human", "setting": "oral, dose not given", "quantity": "blood creatinine increased TEAE", "value": "18.6%"}
{"Compound": "CC[C@H](C)[C@H](NC(=O)[C@H](Cc1ccccc1)NC(=O)[C@H](CCC(=O)O)NC(=O)[C@H](CCCNC(=N)N)NC(=O)[C@H](C)NC(=O)[C@H](C)NC(=O)[C@H](CCC(N)=O)NC(=O)[C@H](CCC(=O)O)NC(=O)[C@H](CCC(=O)O)NC(=O)[C@H](CC(C)C)NC(=O)[C@H](Cc1ccc(O)cc1)NC(=O)[C@H](CO)NC(=O)[C@H](CO)NC(=O)[C@@H](NC(=O)[C@H](CC(=O)O)NC(=O)[C@H](CO)NC(=O)[C@@H](NC(=O)[C@H](Cc1ccccc1)NC(=O)[C@@H](NC(=O)CNC(=O)[C@H](CCC(=O)O)NC(=O)[C@H](C)NC(=O)CCc1cnc[nH]1)[C@@H](C)O)[C@@H](C)O)C(C)C)C(=O)N[C@@H](C)C(=O)N[C@@H](Cc1c[nH]c2ccccc12)C(=O)N[C@@H](CC(C)C)C(=O)N[C@H](C(=O)N[C@@H](CCCNC(=N)N)C(=O)NCC(=O)N[C@@H](CCCNC(=N)N)C(=O)N[C@@H](CCCCNC(=O)COCCOCCNC(=O)COCCOCCNC(=O)CC[C@H](NC(=O)CCCCCCCCCCCCCCCCC(=O)O)C(=O)O)C(=O)NCC(=O)NCC(=O)N[C@@H](CO)C(=O)N[C@@H](CCCCNC(=O)[C@H](CCCCNc1c(NCCCCCN(O)C(=O)CCC(=O)NCCCCCN(O)C(=O)CCC(=O)NCCCCCN(O)C(C)=O)c(=O)c1=O)Nc1c(NCCCCCN(O)C(=O)CCC(=O)NCCCCCN(O)C(=O)CCC(=O)NCCCCCN(O)C(C)=O)c(=O)c1=O)C(=O)O)C(C)C [zirconium-89 labelled]", "test": "ex vivo gamma counting", "test system": "male Sprague-Dawley rats, brain", "setting": "intravenous, 1 nmol, 24 h", "quantity": "tissue uptake", "value": "0.019 %ID/g"}
{"Compound": "O=c1nc(NO)ccn1[C@@H]1O[C@H](CO)[C@@H](O)[C@H]1O", "test system": "rat amniotic fluid dialysate", "setting": "25 ng/mL, low concentration, three cycles, added: molnupiravir 5 ng/mL", "quantity": "freeze-thaw stability", "value": "104 ± 2.3%"}
{"Compound": "Cc1cccc(Cn2nc(C3CC3)c3c(NC(=O)c4cnc5cc(OCCN6CCN(C)CC6)ccn45)cccc32)n1", "test": "item: Amylase increased", "test system": "human advanced solid tumours", "setting": "oral, dose not given, all-causality,, all doses", "quantity": "adverse events incidence", "value": "26.3%"}
{"Compound": "Brc1ccc(Oc2cc(Br)c(Br)cc2Br)c(Br)c1", "test system": "whole cow milk", "setting": "200 nM nominal", "quantity": "dose fraction in skim milk", "value": "6.97%"}
{"Compound": "O=C(Nc1ccccc1)C1CCN(C(=O)Oc2cccnc2)CC1", "test": "item: Tremor", "test system": "healthy female human", "setting": "concentration not given, all doses pooled", "quantity": "adverse event incidence", "value": "4%"}
{"Compound": "O=S(=O)(Nc1ccccc1)c1ccc(NC(=S)Nc2ccccc2)cc1", "test system": "male mouse, blood", "setting": "oral, 80 mg/kg daily, 14 days", "quantity": "albumin level", "value": "3.2 g/dL"}
{"Compound": "N[C@@H]1c2ccccc2OC12CCN(c1cnc3c(N4CCCc5ncccc54)n[nH]c3n1)CC2", "test system": "advanced solid tumour patients", "setting": "oral, 60 mg once daily", "quantity": "TEAE causing dose reduction", "value": "20%"}
{"Compound": "COc1ccc(C[C@@H]2NC(=O)[C@H]([C@@H](C)O)NC(=O)[C@@H]3[C@@H]4CCN3C(=O)[C@@H]3Cc5cn(c6ccc(F)cc56)CCCCCCN(Cc5ccc(cc5)CCNC(=O)[C@]5(C)CCCN5C2=O)C(=O)CCC(=O)N[C@@H](C)C(=O)N[C@H](CNC(=O)CCCCC[N+](C)(C)C)C(=O)N[C@@H](Cc2cccc(c2)CNC(=O)CO4)C(=O)N3)cc1", "test": "item: Regurgitation", "test system": "humans", "setting": "concentration not given, Study-003", "quantity": "participants with adverse event", "value": "3.2%"}
{"Compound": "O=C(O)CCCOc1ccc(F)cc1-c1cc(-c2ccccc2C(F)(F)F)n(-c2ccccc2)n1", "test": "item: AST", "test system": "Crl:CD(SD) rats, female, serum", "setting": "iv, 25 µg/kg, 1 day", "quantity": "serum enzyme activity", "value": "93.6 ± 19.6 U/L"}
{"Compound": "COc1cccc(Oc2ccccc2NC(=O)CNC(=O)c2cccc3ccccc23)c1", "test system": "esterase-deficient SCID mice, male, blood", "setting": "oral, 15 mg/kg/day, 14 days, toxicity study", "how to read": "reference: white cells", "quantity": "monocytes", "value": "6.4% and 3% and 4%"}
